Measured values collected from several papers.
Lines come from different studies, so protocols differ. Values after ≈ are worked out from the molar mass of the structure shown.
Organism: Escherichia coli

SMILES | assay | test system | conditions | how to read | endpoint | value
C[C@]1(COC(=O)c2ccc(O)c(O)c2)[C@H](C(=O)O)N2C(=O)/C(=C/c3ccccn3)[C@H]2S1(=O)=O | broth microdilution | TG1 expressing CMY-2 | 16 µg/mL |  | MIC of ceftazidime | ≤ 0.06 µg/mL
CC[C@H](C)[C@H](NC(=O)[C@H](CCCCN)NC(=O)[C@H](CCCCN)NC(=O)[C@H](CC(C)C)NC(=O)[C@H](CCCCN)NC(=O)[C@H](CCC(=O)O)NC(=O)[C@H](CCCCN)NC(=O)[C@@H](NC(=O)[C@H](CCCCN)NC(=O)[C@H](CC(N)=O)NC(=O)[C@H](CCCNC(=N)N)NC(=O)[C@H](Cc1ccccc1)NC(=O)[C@H](CCCCN)NC(=O)[C@H](CCCNC(=N)N)NC(=O)[C@H](CC(C)C)NC(=O)[C@H](CCCNC(=N)N)NC(=O)[C@H](CCCCN)NC(=O)[C@H](CCCNC(=N)N)NC(=O)[C@H](CC(C)C)NC(=O)CN)[C@@H](C)CC)C(=O)NCC(=O)N[C@@H](CCC(N)=O)C(=O)N[C@@H](CCCCN)C(=O)N[C@H](C(=O)N[C@@H](CCC(N)=O)C(=O)NCC(=O)N[C@@H](Cc1ccccc1)C(=O)N[C@H](C(=O)N1CCC[C@H]1C(=O)N[C@@H](CCCCN)C(=O)N[C@@H](CC(C)C)C(=O)N[C@@H](C)C(=O)N1CCC[C@H]1C(=O)N[C@@H](CCCNC(=N)N)C(=O)N[C@H](C(=O)N[C@@H](CC(=O)O)C(=O)N[C@@H](Cc1ccc(O)cc1)C(=O)O)[C@@H](C)O)C(C)C)[C@@H](C)CC | inhibition zone | Am. J23a |  |  | lethal concentration | 1.44 µM
CCCCCCCC(=O)NCC(=O)N[C@@H](CC(C)C)C(=O)N[C@@H](CC(C)C)C(=O)N[C@@H](CCCCN)C(=O)N[C@@H](CCCNC(=N)N)C(=O)N[C@H](C(=O)N[C@@H](CCCCN)C(=O)N[C@H](C(=O)N[C@@H](CC(C)C)C(=O)N[C@@H](CC(C)C)C(N)=O)[C@@H](C)O)[C@@H](C)CC | checkerboard | ATCC 25922 | with: gentamicin |  | FIC index | 0.5
CC(C)C[C@H](NC(=O)[C@H](CCCNC(=N)N)NC(=O)CNC(=O)CNC(=O)[C@@H](N)CCCNC(=N)N)C(=O)N[C@H]1CSSC[C@@H](C(=O)N[C@H](C(=O)NCC(=O)N[C@@H](CCCNC(=N)N)C(=O)O)C(C)C)NC(=O)[C@H](C(C)C)NC(=O)[C@@H]2CSSC[C@H](NC(=O)[C@H](Cc3ccc(O)cc3)NC1=O)C(=O)N[C@@H](CCCNC(=N)N)C(=O)N[C@@H](CCCNC(=N)N)C(=O)N[C@@H](CCCNC(=N)N)C(=O)N[C@@H](Cc1ccccc1)C(=O)N2 | bacterial growth | W3110 | concentration not given, 4 h, surface-displayed peptide, with: IPTG 100 µM | reference: uninduced | log2 fold change | negative
CC[C@H](C)[C@H](NC(=O)[C@H](CCN)NC(=O)CCCCCCCCCCCNC(=O)CCCCCOC(=O)c1cn(C2CC2)c2cc(N3CCNCC3)c(F)cc2c1=O)C(=O)N[C@@H](CCN)C(=O)N[C@H](Cc1ccccc1)C(=O)N[C@@H](CC(C)C)C(=O)N[C@@H](CCN)C(=O)N[C@@H](C(=O)N[C@@H](CC(C)C)C(=O)N[C@@H](CO)C(N)=O)C(C)C |  |  | 6.25 µM, 12 h, 37 °C |  | survival | 20.6%
CCCCCCCCCCCCCCCCCC(=O)N[C@@H](CCCCN)C(=O)N[C@@H](CCCCN)C(=O)N[C@@H](CCCNC(=N)N)C(=O)N[C@@H](CCCCN)C(N)=O |  | K12 |  |  | MBC | 128 µg/mL (≈ 155 µM)
O=C(O)[C@@H]1Cc2c([nH]c3ccccc23)[C@@H](c2ccc(Br)cc2Br)N1 |  | BL21(DE3) | 125 µM, 18 h |  | growth inhibition | 0%
CCCCCCCCCCCCCCCCCC(=O)N[C@@H](CCCCN)C(=O)N[C@@H](CCCCN)C(=O)N[C@@H](CCCNC(=N)N)C(=O)N[C@@H](CCCCN)C(=O)N[C@@H](CCCCN)C(N)=O |  | K12 |  |  | MBC | 64 µg/mL (≈ 67.2 µM)
CC[C@H](C)[C@H](NC(=O)[C@@H]1CCCN1C(=O)[C@H](CCCNC(=N)N)NC(=O)[C@@H]1CCCN1C(=O)[C@@H]1CCCN1C(=O)[C@@H](NC(=O)[C@@H]1CCCN1C(=O)[C@H](CCCNC(=N)N)NC(=O)[C@@H]1CCCN1C(=O)[C@H](CC(C)C)NC(=O)[C@H](Cc1ccc(O)cc1)NC(=O)[C@H](CO)NC(=O)CNC(=O)[C@H](CCCCN)NC(=O)[C@H](CC(=O)O)NC(=O)[C@@H](N)C(C)C)[C@@H](C)O)C(=O)N[C@@H](Cc1ccc(O)cc1)C(=O)N[C@@H](CC(N)=O)C(=O)N[C@@H](CCCNC(=N)N)C(=O)N[C@@H](CC(N)=O)C(=O)NCC(=O)N1CCC[C@H]1C(=O)N[C@@H](CCCNC(=N)N)C(=O)N[C@@H](CC1CCCCC1)C(=O)N[C@@H](Cc1ccccc1)C(=O)N[C@@H](CCC(N)=O)C(=O)N[C@@H](CC(C)C)C(=O)N[C@@H](CC(=O)O)C(=O)O | broth microdilution | D22 |  |  | MBC | 16 µg/mL (≈ 4.84 µM)
CC[C@H](C)[C@H](NC(=O)[C@H](CCCCN)NC(=O)[C@H](CCCCN)NC(=O)[C@H](CC(C)C)NC(=O)[C@H](CCCCN)NC(=O)[C@H](CCC(=O)O)NC(=O)[C@H](CCCCN)NC(=O)[C@@H](NC(=O)[C@H](CCCCN)NC(=O)[C@H](CC(N)=O)NC(=O)[C@H](CCCNC(=N)N)NC(=O)[C@H](Cc1ccccc1)NC(=O)[C@H](CCCCN)NC(=O)[C@H](CCCNC(=N)N)NC(=O)[C@H](CC(C)C)NC(=O)[C@H](CCCNC(=N)N)NC(=O)[C@H](CCCCN)NC(=O)[C@H](CCCNC(=N)N)NC(=O)[C@H](CC(C)C)NC(=O)[C@@H](N)CCCNC(=N)N)[C@@H](C)CC)C(=O)NCC(=O)N[C@@H](CCC(N)=O)C(=O)N[C@@H](CCCCN)C(=O)N[C@H](C(=O)N[C@@H](CCC(N)=O)C(=O)NCC(=O)N[C@@H](Cc1ccccc1)C(=O)N[C@H](C(=O)N1CCC[C@H]1C(=O)N[C@@H](CCCCN)C(=O)N[C@@H](CC(C)C)C(=O)N[C@@H](CCC(N)=O)C(=O)N1CCC[C@H]1C(=O)N[C@@H](CO)C(=O)N[C@@H](CCCCN)C(=O)N[C@@H](CCC(N)=O)C(=O)N[C@@H](CO)C(=O)O)C(C)C)[C@@H](C)CC | inhibition zone | Am. J16c |  |  | lethal concentration | 2.89 µM
O=C(O)[C@@H]1Cc2c([nH]c3ccccc23)[C@@H](c2ccccc2)N1 |  | BL21(DE3) | 250 µM, 18 h |  | growth inhibition | 0%

Excerpt of the above:
SMILES | assay | test system | conditions | how to read | endpoint | value
O=C(O)[C@@H]1Cc2c([nH]c3ccccc23)[C@@H](c2ccc(Br)cc2Br)N1 |  | BL21(DE3) | 125 µM, 18 h |  | growth inhibition | 0%
